Results collected from several papers.
Numbered parts are unrelated; each lists some results of a single study. Changes are numbered by the printed parent chain.

Set 1
Target: Interferon regulatory factor 7, full length, phosphomimetic (IRF7, Homo sapiens, UniProt Q92985, residues 1-503, S101K/S471D/S472D/S475D/S476D/S477D/S483D/S484D/S487D)
Sequence of UniProt Q92985 (whole entry, unmodified, looked up): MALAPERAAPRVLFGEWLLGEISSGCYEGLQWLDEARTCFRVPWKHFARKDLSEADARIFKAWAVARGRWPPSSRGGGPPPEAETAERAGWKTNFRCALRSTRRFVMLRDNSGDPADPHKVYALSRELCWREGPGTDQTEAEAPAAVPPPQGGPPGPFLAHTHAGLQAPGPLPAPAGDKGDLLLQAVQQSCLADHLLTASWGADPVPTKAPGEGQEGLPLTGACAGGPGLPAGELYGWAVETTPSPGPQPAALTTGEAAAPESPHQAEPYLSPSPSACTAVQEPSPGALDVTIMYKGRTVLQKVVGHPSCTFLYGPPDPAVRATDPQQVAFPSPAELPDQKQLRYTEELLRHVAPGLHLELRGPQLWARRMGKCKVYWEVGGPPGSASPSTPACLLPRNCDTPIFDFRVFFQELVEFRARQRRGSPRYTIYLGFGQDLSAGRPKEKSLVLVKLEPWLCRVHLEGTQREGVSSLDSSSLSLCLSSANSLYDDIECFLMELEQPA
Technique: protein-binding microarray
Molecule type: double-stranded DNA, one strand shown
Matrix: in vitro
Concentration: 250 nM
Setting: 60-bp whole probe
Added: salmon DNA 0.4 mg/ml
Reference: random background probes
Direction: higher = stronger binding
All sequences stand within: GCCTAGCAC … GTCTTGATTCGCTTGACGCTGCTG
| Oligonucleotide | log fluorescence [z-score] |
| --- | --- |
| TCAAATTTTCAATTCCTACTGTGCTAG | 0.462 |
| GACGGTATCAACTTTCGGGACGTGCTA | 0.0267 |
| TTAGGTATGGACTTTCGGTTAGTGCTA | 0.796 |
| GAGGGTATCCTTTTCCTGACGTGCTAG | 0.607 |
| CTGGTGCTCATCTGTCATGTTGTGCTA | -0.523 |
| TCATTTCTTTAACTCATACTGTGCTAG | 1.75 |
| GACGATCTCCTTATCCTGACGTGCTAG | -0.0129 |
| TCACGGCTCGTTATCCTACTGTGCTAG | 0.369 |
| GACGGACTGGTTATCCTGACGTGCTAG | -0.827 |
| TCACATTTGGAAAATGTAACTGTGCTA | 0.956 |
| TCTGTTTTCTCCATGGAAGAGTGCTAG | 2.14 |
| GACGGTATCGACATTCGGGACGTGCTA | 0.226 |
| GAGGAACTGGGGACTGGAGACGTGCTA | -0.588 |
| TTAGGTCTACTTCTCCTTTAGTGCTAG | 0.274 |
| GACGGTCTCCTACCGCTGACGTGCTAG | -0.329 |
| AATTTTTACTTTCTGAATGCGTGCTAG | 0.91 |
| GACGGACTGCGTATCCTGACGTGCTAG | -0.16 |
| GACGGTATCGACACTGGAGACGTGCTA | -0.256 |
| TCACGGGCTTCTTTTTCTACTGTGCTA | -0.392 |
| TTAGGGTTCGACTTTCGGTTAGTGCTA | 3.7 |
| GACGATTTCAGACTGGACACGTGCTAG | 0.194 |

Set 2
Target: RNA binding protein fox-1 homolog 2, RRM domain, GST-SBP tag (RBFOX2, Homo sapiens, UniProt O43251-10, residues 100-194)
Technique: RNA Bind-n-Seq
Molecule type: RNA
Matrix: in vitro
Concentration: 365 nM
Setting: natural RNA segment, single round, ends assumed
Reference: no-protein control
Direction: higher = stronger binding
Residues (chain): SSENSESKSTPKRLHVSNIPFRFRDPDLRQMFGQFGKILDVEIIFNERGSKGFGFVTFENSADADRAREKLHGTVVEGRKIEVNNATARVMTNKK
| Oligonucleotide | RBNS enrichment (R) |
| --- | --- |
| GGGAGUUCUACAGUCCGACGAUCCCUGGGAAGAACUGCCCUUCUGCAAAGGGGGGACUGCAUGGUUGCAUUUUCAUCACUGAAAGUCAGAGGCCAAGGAAAUCAUUUCUACUUCUUUAAAAACUCCUUCUAAGUGGAAUUCUCGGGUGCCAA | 2.75 |
| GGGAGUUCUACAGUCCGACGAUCAACAUGGGCAUUGGGUUCUAAAGGACUAACAUAAAAUCUGUGAAUUAAAAAAGCUCAAUGCAUUGUCUUGUGGAGGAUGAAUAGAUGUGAUCACUGAGACAGCCACUUGGUGGAAUUCUCGGGUGCCAA | 0.675 |
| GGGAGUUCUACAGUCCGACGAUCCGCCAUUUAACUUUCAGGUCGAUUUCCUUUCCUGAUCAGACAUCUUUGUGCCCCCUUUAGGAAGGAAAAGAAUACACCUACGAUGUGCCAGGCACUGUGUUAGGCGCUUUUGGAAUUCUCGGGUGCCAA | 0.244 |
| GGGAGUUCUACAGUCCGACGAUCGGUAGGGGAGGUAUCCAUUCAUAAAAUGAAUGUGGGUGAAGCCGCCCUAAGGAUUUUCCUUUAAUUUCUCUGGAGUAAUACUGUACCAUACUGGUCUUUGCUUUUAGUAAUGGAAUUCUCGGGUGCCAA | 0.314 |
| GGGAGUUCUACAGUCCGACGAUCUUUGGUGAUGAAUAUUUUAUACCCGUCUAAGGGAGAAAGCUAAUGUUUUCCACAAGACUGAACAACGUGUAUUUACACGAGGGUAGACGGCAGAUGCCUGACAGAGAGUGUGGAAUUCUCGGGUGCCAA | 0.373 |
| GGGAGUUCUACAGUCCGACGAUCCUUGCCGAUAAUACUGACUCUAGCCCAUGAUUGCCUUGCCCAAGCCAAAGAGGAAGGUUAGGUUGGCUUGUCGAGCCCUUGAGCGUUGGGAGAUGGGGUGGGAAGGAGGUUGGAAUUCUCGGGUGCCAA | 0.965 |
| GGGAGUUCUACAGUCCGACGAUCACUUCCUGCACUUAAAAUUUGAAACAGCAAAGGUUUGAGAUGAGAUGCUUGUGGCACACAGUUGGGUGAUGUGGGGAAAGGACACCGGGUCAGGAGUUGCAAGUUUAACUUGGAAUUCUCGGGUGCCAA | 0.78 |
| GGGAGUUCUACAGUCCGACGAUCCCUGGAUGCACCUGAACUCGUCCCCCUCGUCGAGGGGCAGGAGGGCAUGGACAUGGGCUUCUUCACGGAGAGCCAGGGCGUGUGGGGAUCUUGCCAGAGCUGAGCUGAGCUGGAAUUCUCGGGUGCCAA | 1.23 |
| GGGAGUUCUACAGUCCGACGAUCCUUCAACAUUUCUUCACUUUUGCAAGGUUCCACAGACUAAGACAUUGGGUCUAUUCCAGCUCAUUCAUUUUAUAUUGAAAACUAAUUUAAAAAAAAAUGGUGGCUUCAGCUGGAAUUCUCGGGUGCCAA | 0.472 |
| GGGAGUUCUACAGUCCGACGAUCAGUGGGCCUGGUAGCACAUGUCUGUCCUCAGAGCAGGGGCCAGAUGAUUUUCCUCCCUGGUUUGCAGCUGUUUUCAAAGCCCCCGAUAAUCGCUCUUUUCCACUCCAAGAUGGAAUUCUCGGGUGCCAA | 0.576 |
| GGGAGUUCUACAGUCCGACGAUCCGGGGCCAUCGGCUCAGCUCUUGGCUGCCUGGUCAGCCGGUCAGUGUUUUGCGGGGAGAGGUGGCGGGGUGGGAACCGCGUCAUUCCAAAGUGGAUCUGCGGUGAAGCCAUGGAAUUCUCGGGUGCCAA | 0.333 |
| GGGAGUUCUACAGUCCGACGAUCUUUUUUAUCACUAAAAGUUGGACUCAUUGAUGGAGUCCUGUAGUAGUUUCAGUGUUAGAUACAGUUUUUUCCACCAUACAUCUGUGCAUUUUCUCUUUAGGUGACUGUUUUGGAAUUCUCGGGUGCCAA | 3.28 |

Set 3
Target: Sal-like protein 4, full length isoform B (SALL4, Homo sapiens, UniProt Q9UJQ4-2, residues 1-616)
Technique: universal PBM
Molecule type: double-stranded DNA, one strand shown
Matrix: in vitro
Concentration: not given
Setting: 8-mer, flanks averaged, mean of replicates
Direction: higher = stronger binding
Construct (chain): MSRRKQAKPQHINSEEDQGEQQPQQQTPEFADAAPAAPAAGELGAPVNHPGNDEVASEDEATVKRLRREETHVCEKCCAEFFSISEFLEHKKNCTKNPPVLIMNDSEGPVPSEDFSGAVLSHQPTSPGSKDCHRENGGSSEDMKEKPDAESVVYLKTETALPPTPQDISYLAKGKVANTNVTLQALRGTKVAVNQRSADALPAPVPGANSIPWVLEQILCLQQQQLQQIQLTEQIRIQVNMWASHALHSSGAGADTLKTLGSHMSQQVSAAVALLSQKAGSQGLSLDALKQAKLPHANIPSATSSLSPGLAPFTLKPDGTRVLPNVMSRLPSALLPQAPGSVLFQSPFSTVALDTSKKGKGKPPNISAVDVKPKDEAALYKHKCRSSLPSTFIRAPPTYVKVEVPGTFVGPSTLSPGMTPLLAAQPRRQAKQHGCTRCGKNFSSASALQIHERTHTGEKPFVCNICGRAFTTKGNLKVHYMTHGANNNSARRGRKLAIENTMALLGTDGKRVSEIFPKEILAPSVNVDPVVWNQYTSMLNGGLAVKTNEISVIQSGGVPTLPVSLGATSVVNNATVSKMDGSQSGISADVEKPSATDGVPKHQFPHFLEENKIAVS
| Oligonucleotide | E-score |
| --- | --- |
| CGAGGCGC | -0.217 |
| CAAAAACC | 0.122 |
| CTGACCAG | -0.209 |
| AAAGCAAT | 0.187 |
| ACCATCAA | 0.132 |
| GCCTTGGA | -0.14 |
| CGGCGCTA | -0.251 |
| ACTCTTGC | -0.0322 |
| TACGTTAA | 0.244 |
| ACGCGCAT | 0.0669 |
| GTATAGAA | 0.157 |
| GAACCGCA | -0.192 |
| ACTAGGCC | -0.234 |
| ATAGCAGG | -0.0191 |
| ACCGAAGC | -0.216 |
| GCAACCAA | -0.0266 |
| AGAGTTAG | 0.0208 |
| ATTGACAG | 0.125 |
| TAGGTCGA | 0.0128 |
| CGAAGTTA | 0.0612 |
| AGACTGAC | -0.0715 |
| GTCTGGGA | -0.16 |
| TAATCGTA | 0.249 |
| AAGACTTA | 0.158 |
| ATAGACGG | 0.11 |

Set 4
Target: Histone acetyltransferase KAT6A, winged helix 1, GST fusion (KAT6A, Homo sapiens, UniProt Q92794, residues 1-85)
Technique: protein binding microarray
Molecule type: double-stranded DNA, one strand shown
Matrix: in vitro
Concentration: not given
Setting: 8-mer, flanks averaged, mean of 2 arrays, mostly near background
Reference: not given
Direction: higher = stronger binding
Target sequence (chain): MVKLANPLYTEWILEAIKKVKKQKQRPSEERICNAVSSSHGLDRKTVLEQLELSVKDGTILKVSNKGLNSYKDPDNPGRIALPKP
| Oligonucleotide | E-score |
| --- | --- |
| ACCTGCAG | -0.306 |
| ATAGCTCA | 0.0201 |
| CGGCGGGA | 0.466 |
| GACAAGCA | 0.0132 |
| ACCGCCTA | 0.223 |
| AAACGTCT | -0.146 |
| CTCGGAAA | -0.0804 |
| CCGCCTTA | 0.211 |
| AATGGAAA | -0.0421 |
| AGGGTGAT | -0.207 |
| ATGACTAA | -0.0567 |
| AGTGTACA | -0.0569 |
| ACCCTGGC | -0.074 |
| CCGGCACA | 0.23 |
| AGTCAAGG | -0.197 |
| CCTACTCG | 0.059 |
| CCGCGTCA | 0.33 |
| GACACACA | -0.124 |
| ATATTTCC | -0.0315 |
| CGCAAGAC | 0.0415 |
| GTCCAACA | -0.212 |
| GAGAAACA | -0.148 |
| GGGAGGGA | -0.0232 |
| ACTACTTA | -0.0382 |
| ACGGAGAA | 0.117 |

Set 5
Target: ABI1, truncated, D143A, DHFR fusion (Arabidopsis thaliana, UniProt P49597)
Technique: DHFR PCA, dose-response
Matrix: yeast
Setting: Hill fit, mean, not affinity
Added: (+)-ABA, dose series
Direction: lower = more sensitive
Starting sequence: PYL1, truncated, DHFR fusion (Arabidopsis thaliana, UniProt Q8VZS8); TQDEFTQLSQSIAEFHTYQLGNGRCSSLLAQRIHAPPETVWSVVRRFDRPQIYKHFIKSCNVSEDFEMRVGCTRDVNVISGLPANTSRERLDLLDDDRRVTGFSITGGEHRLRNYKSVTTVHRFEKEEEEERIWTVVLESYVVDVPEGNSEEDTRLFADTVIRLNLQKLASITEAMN
| Substitution | ABA EC50 [µM] |
| --- | --- |
| E139T | 0.362 |
| D48K | 188 |
| E127K | 2.1 |
| N61I | 2.4 |
| D95Q | 72.4 |
| C72H | 10.6 |
| T173A | 1.82 |
| C60A | 18.2 |
| G107I | 658 |
| N114M | 239 |
| T173G | 24.7 |
| D144E | 14.9 |
| D3C | 3.55 |
| M68G | 8.16 |
| Q10Y | 8.07 |
| V62N | 108 |
| D92W | 67.6 |
| T160I | 19.8 |
| E127V | 3.03 |
| R69D | 7.34 |
| I133R | 3.99 |
| L20M | 3.94 |
| S150V | 32.8 |
| Q167G | 3.16 |
| S11F | 3.06 |

Repeated from above (set 3):
| Oligonucleotide | E-score |
| --- | --- |
| GCCTTGGA | -0.14 |
| GTCTGGGA | -0.16 |
| AGACTGAC | -0.0715 |
| CGGCGCTA | -0.251 |
| CAAAAACC | 0.122 |
| ACGCGCAT | 0.0669 |
| ACCGAAGC | -0.216 |
| ACTCTTGC | -0.0322 |
| GTATAGAA | 0.157 |
| AAAGCAAT | 0.187 |
| TAGGTCGA | 0.0128 |
| AAGACTTA | 0.158 |
| TAATCGTA | 0.249 |
| ATTGACAG | 0.125 |
| GCAACCAA | -0.0266 |
| CGAAGTTA | 0.0612 |
| TACGTTAA | 0.244 |
